Published values gathered from unrelated publications.
Each numbered part is a random draw from the data of one study; scales do not carry over between parts. “And” joins repeats or separate records; there may be more than shown.

Block 1
Target: RNA binding protein fox-1 homolog 2, RRM domain, GST-SBP tag (RBFOX2, Homo sapiens, UniProt O43251-10, residues 100-194)
Method: RNA Bind-n-Seq
Molecule type: RNA
Medium: in vitro
Tested at: 365 nM
Notes: natural RNA segment, single round, ends assumed
Baseline: no-protein control
Reading: higher = stronger binding
All sequences stand within: GGGAGUUCUACAGUCCGACGAUC … UGGAAUUCUCGGGUGCCAA
Target sequence (chain): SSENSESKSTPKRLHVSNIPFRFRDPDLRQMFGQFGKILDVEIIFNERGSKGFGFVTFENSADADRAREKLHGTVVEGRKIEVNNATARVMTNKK
Oligonucleotide | RBNS enrichment (R)
CUGCAUAAUUCUGAAGUUAUAUUUCCUAUACCAUUUCCGUAAUUCUUAUUCCAUAUUAGAAAACUUUGUUAGGCCAAAGACAAAUAGUAGGCAAGAUGGCACAGGGCAUG | 0.7
UCUGGGAUUUAGGGGGAGCCAACUCUUGGCCUUCCUUUGCUCCCUGACUGUCCUUACGUCCUCUCUGUUUAGAGUCUUAUUUAUUCUGCCCUUUUAACCAGUGCUGUGAU | 0.346
UGUGUUUGGCACUCUGCUAGACGUUUUACUGGUAUUAACCGAUUUAAUCCUCACAAUAACGAAGUAUGUACUACUAUAAUUGCCAGUUUACAGACGAGAAAACUAAGGCA | 1.02
GGGGUGCCCCACACAGCUAGAGCGGCCAGGAGAGCGCCUCCUAACCACCAGCCGUUCCUGAUCUCAGGAGCCUUGAAGGGCUGGGCUCUUGCCUUCCUGGAGUAAAUAUU | 0.346
AGUAUGUGAAGAAAUAUGAUGGUGUAGAAAUGUCCUGGGUUUAAGAAGUGAUUUCUCAAAAGUAAAGAUACUAUCCCAGAGGGUCGUGGGCAGAAAUGAAGGGAUUUCAU | 3.66
GACCAACCCUGCCAAGUCUAAUGGCAGUGGUCUGGGCACCUGAUGUAGUUUGGGGACACUCUGUAUUCCUGUUUUCAUUCUAACAAAGAGGACAGAGCUAUUUUGCUAUG | 0.275
CAGCAGACCUGUGAGCCAGCCAGGGACCGGACUAGAAGCCAUGUUGCAUAUUGGGGUUUUUGUUUGUUUGUUUUUUAAGCACUUACCAAGUGCCCUAUCCCUGGCAGGCC | 1.37
AAGACAUAUCAUGUGUGAGAUAACUUCCUUCACAUCUCCCAUGGUCCCUAGCAAAAUGCUAGGCCUGUAGUAGUCAAGGUGCUCAAUAAAUAUUUGUUUGGGUGGUUUGU | 0.321

Block 2
Target: Replicase polyprotein 1ab, nsp13 helicase (rep, Severe acute respiratory syndrome coronavirus 2, UniProt P0DTD1)
Action: inhibitor
Tested at: 20 µM
Compound | inhibition
COCCc1ccc(OCC(O)CNC(C)C)cc1 (stereo not shown) | 4.53%
CCS(=O)(=O)N1CCN(c2ccc(Nc3ncc(C(N)=O)c(NC4CC4)n3)cc2)CC1 | 8.47%
Oc1c(CN2CCCC2)cc(COCc2ccccc2)c2cccnc12 | -0.73%
Cc1c(F)cccc1NC(=O)Nc1ccc(Cl)c(S(=O)(=O)[C@H]2CCCNC2)c1O | -1.68%
COC(=O)c1cccnc1 | 3.53%
Cc1cc(Nc2cc(N3CCN(C)CC3)nc(Sc3ccc(NC(=O)C4CC4)cc3)n2)n[nH]1 | 5%
CCOC(=O)N1CCC(=C2c3ccc(Cl)cc3CCc3cccnc32)CC1 | -4.06%
C#Cc1c[nH]c(=O)[nH]c1=O | 2.23%
C/C=C/c1cc(OC)c(OC)cc1OC | 9.94%
O=c1ccc2[nH]cc(C3=CCNCC3)c2[nH]1 | 4.02%
CC(C)C[C@H](NC(=O)CNC(=O)c1cc(Cl)ccc1Cl)B(O)O | 7.12%
N[C@@H](Cc1ccc(B(O)O)cc1)C(=O)O | 5.43%
CC(=O)NC[C@H]1CN(c2ccc(N3CCSCC3)c(F)c2)C(=O)O1 | 0.41%
CNS(=O)(=O)Nc1nccc(Cc2c(C)c3ccc(Oc4ncccn4)cc3oc2=O)c1F | -1.93%
C[C@]12CC[C@H](O)C[C@@H]1CC[C@@H]1[C@@H]2CC[C@]2(C)C(=O)CC[C@@H]12 | 1.52%
N#C/C(=C\c1ccc(O)c(O)c1)C(=O)NCc1ccccc1 | 27.4%
c1ccc2c(c1)OC[C@H](CNCCCOc1ccc3c(c1)OCO3)O2 | 7.05%
O=C(c1ccc2nccnc2c1)N1CCCCC1 | -0.71% and 6.04%
Cc1cc(S(=O)(=O)O)c2c(C)ccc(C(C)C)cc1-2 | 6.53%
Nc1ccn([C@H]2CC[C@@H](CO)O2)c(=O)n1 | 4.24%
C[C@H]1[C@H](OC(=O)CCC(=O)O)O[C@@H]2O[C@@]3(C)CC[C@H]4[C@H](C)CC[C@@H]1[C@@]24OO3 | 2.51%
NS(=O)(=O)c1ccc(C(=O)O)cc1 | 0.21%
C[C@@H](c1ncncc1F)[C@](O)(Cn1cncn1)c1ccc(F)cc1F | 6.09%
Cc1c(C(N)=O)cc([N+](=O)[O-])cc1[N+](=O)[O-] | 0.43%

Block 3
Target: Histone acetyltransferase KAT6A, winged helix 2, GST fusion (KAT6A, Homo sapiens, UniProt Q92794, residues 85-181)
Method: protein binding microarray
Molecule type: double-stranded DNA, one strand shown
Medium: in vitro
Tested at: not given
Notes: 8-mer, flanks averaged, mean of 2 arrays, mostly near background
Baseline: not given
Reading: higher = stronger binding
Residues (chain): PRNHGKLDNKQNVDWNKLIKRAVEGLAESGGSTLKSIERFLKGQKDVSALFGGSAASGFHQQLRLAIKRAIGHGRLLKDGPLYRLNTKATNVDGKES
Oligonucleotide | E-score
CATGCACC | -0.121
GTTTACAA | 0.083
CGCCCCAC | 0.0952
CGAAGGTC | 0.0207
TATCGTAA | 0.0172
CGAGATGC | 0.0786
GTAGATCA | 0.125
GGTATGAA | 0.00264

Block 4
Target: Interferon regulatory factor 7, full length, phosphomimetic (IRF7, Homo sapiens, UniProt Q92985, residues 1-503, S471D/S472D/S475D/S476D/S477D/S483D/S484D/S487D)
Method: protein-binding microarray
Molecule type: double-stranded DNA, one strand shown
Medium: in vitro
Tested at: 2200 nM top
Notes: 60-bp whole probe
Together with: salmon DNA 0.4 mg/ml
Baseline: random background probes
Reading: higher = stronger binding
All sequences stand within: GCCTAGCAC … GTCTTGATTCGCTTGACGCTGCTG
Residues (chain): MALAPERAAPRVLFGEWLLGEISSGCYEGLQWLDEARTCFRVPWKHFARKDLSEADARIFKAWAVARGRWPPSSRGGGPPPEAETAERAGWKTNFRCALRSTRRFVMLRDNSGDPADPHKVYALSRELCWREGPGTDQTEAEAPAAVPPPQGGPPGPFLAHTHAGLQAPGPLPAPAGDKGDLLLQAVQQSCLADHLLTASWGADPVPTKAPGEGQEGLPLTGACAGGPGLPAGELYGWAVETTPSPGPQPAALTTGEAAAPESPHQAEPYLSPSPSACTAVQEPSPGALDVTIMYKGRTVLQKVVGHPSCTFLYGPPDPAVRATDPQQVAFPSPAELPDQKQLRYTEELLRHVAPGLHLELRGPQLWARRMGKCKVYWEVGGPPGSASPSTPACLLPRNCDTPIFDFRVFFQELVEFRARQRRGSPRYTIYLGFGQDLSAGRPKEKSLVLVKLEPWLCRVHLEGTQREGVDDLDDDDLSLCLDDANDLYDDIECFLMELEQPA
Oligonucleotide | fitted relative affinity [z-score]
GACGGACTGGACTTTCGAGACGTGCTA | 1.7
GTCGGTTTCGGTATCGGGACGTGCTAG | 9.18
GCATTTTTCTAATTTACTTTGTGCTAG | 2.01
GACTTTTTAGATTTTTTTTCGTGCTAG | 1.17
TTCTATCTCTGTTTTTGCTTGTGCTAG | 2.09
GATGGTTTCGGACTGGGGACGTGCTAG | 3.67
TTAGAACTGAGTTGCGATTAGTGCTAG | -0.21
TCATATTTATGTATACAACTGTGCTAG | 1.02

Block 5
Cell line: HEK-293T/ACE2
Tested at: concentration not given
Time: 16 (unit not given)
Baseline: vehicle
SMILES | viability [%]
O=C1[C@H](CC[C@H](O)c2ccc(F)cc2)[C@@H](c2ccc(O)cc2)N1c1ccc(F)cc1 | 102
NCCCC(N)(C(=O)O)C(F)F (stereo not shown) | 106
O=C(OCc1ccccc1)c1ccccc1 | 102

Block 6
Target: Replicase polyprotein 1ab, main protease (rep, Severe acute respiratory syndrome coronavirus 2, UniProt P0DTD1)
Effect on: enzyme activity
Action: inhibitor
SMILES | IC50 [µM]
O=C(c1ccc(Cl)cc1)c1cc([N+](=O)[O-])ccc1N1CCOCC1 | > 20
COc1ccc2[nH]c([S+]([O-])Cc3ncc(C)c(OC)c3C)nc2c1 (stereo not shown) | > 20
CCOc1cc(C(Nc2cc(C)ccn2)c2ccc3cccnc3c2O)ccc1OC (stereo not shown) | > 20
Cc1ccc(S(=O)(=O)N[C@@H](Cc2ccccc2)C(=O)CCl)cc1 | 0.84

A few entries again (block 2):
Compound | inhibition
CC(=O)NC[C@H]1CN(c2ccc(N3CCSCC3)c(F)c2)C(=O)O1 | 0.41%
CNS(=O)(=O)Nc1nccc(Cc2c(C)c3ccc(Oc4ncccn4)cc3oc2=O)c1F | -1.93%
C[C@]12CC[C@H](O)C[C@@H]1CC[C@@H]1[C@@H]2CC[C@]2(C)C(=O)CC[C@@H]12 | 1.52%
N#C/C(=C\c1ccc(O)c(O)c1)C(=O)NCc1ccccc1 | 27.4%
c1ccc2c(c1)OC[C@H](CNCCCOc1ccc3c(c1)OCO3)O2 | 7.05%
O=C(c1ccc2nccnc2c1)N1CCCCC1 | -0.71% and 6.04%
Cc1cc(S(=O)(=O)O)c2c(C)ccc(C(C)C)cc1-2 | 6.53%
Nc1ccn([C@H]2CC[C@@H](CO)O2)c(=O)n1 | 4.24%
